Experimental data pooled from the literature.
Protocols differ between the studies behind these lines. “And” joins repeats or separate records; there may be more than shown.
Cell line: HL-60(TB)

| SMILES | effect on | method | tested at | time | endpoint | result |
| --- | --- | --- | --- | --- | --- | --- |
| CCCCN1CCN(c2ccc3[nH]c(-c4ccc5[nH]c(-c6ccc(C(F)(F)F)cc6)nc5c4)nc3c2)CC1 | cell growth | – | 10 µM | 48 h | growth percent | -58.7% |
| C#C[C@@]1(O)[C@@H](CO)O[C@@H](n2cc(F)c3c(N)ncnc32)[C@@H]1O | cell growth | – | – | – | TGI | 3530 nM |
| CCOc1ccc(-c2nc3cc(-c4nc5cc(N6CCN(C)CC6)ccc5[nH]4)ccc3[nH]2)cc1OCC | cell growth | – | 10 µM | 48 h | growth percent | 24.8% |
| O=C1NC(c2ccccc2)(c2ccccc2)C(=O)N1Cc1cn(-c2cc3ccccc3oc2=O)nn1 | – | NCI60 single dose | 10 µM | – | growth | 91.1% |
| CC(C)N1CCC(NC2CCN(c3cccc(-c4cc5cc(F)ccc5[nH]4)c3)CC2)CC1 | – | – | – | – | GI50 | 1970 nM |
| O=C(Nc1nnc2n3c(=S)[nH][nH]c3nc(-c3ccc(Cl)cc3)c1-2)c1ccccc1 | – | – | 10 µM | – | growth percent | 93.2% |
| COc1cc(CCC[P+](c2ccccc2)(c2ccccc2)c2ccccc2)c(OC)c2c1OCO2.[I-] | – | SRB | – | – | Log10GI50 | -6.41 log M |
| COc1ccc(OC)c(-c2nc3ccc(-c4nc5ccc(N6CCN(C)CC6)cc5[nH]4)cc3[nH]2)c1 | cell growth | – | 10 µM | 48 h | growth percent | 104% |
| O=C1NC(c2ccccc2)(c2ccccc2)C(=O)N1Cc1cn(-c2c3ccccc3nc3ccccc23)nn1 | – | NCI60 single dose | 10 µM | – | growth | 73.3% |
| COc1c(CCC[P+](c2ccccc2)(c2ccccc2)c2ccccc2)cc2c(c1OC)OCO2.[I-] | – | SRB | – | – | Log10GI50 | -6.47 log M |
| O=C(Nc1nnc2n3c(nc(-c4ccc(Cl)cc4)c1-2)SCC3=O)c1ccccc1 | – | – | 10 µM | – | growth percent | 101% |
| Cn1cncc1C1=CN(c2ncnc3[nH]cnc23)CCS1 | – | – | – | – | GI50 | 21900 nM |
| CCCC(CCC)C(=O)OCc1cn(-c2c3ccccc3nc3ccccc23)nn1 | – | NCI60 single dose | 10 µM | – | growth | 84.4% |
| COc1cc(CCCO)cc2c1OCO2 | – | NCI60 SRB | concentration not given | – | growth percent | 99.6% |
| CCCN1CCN(c2ccc3[nH]c(-c4ccc5[nH]c(-c6ccc(C(F)(F)F)cc6)nc5c4)nc3c2)CC1 | cell growth | – | 10 µM | 48 h | growth percent | -40.7% |
| Cc1cc(-c2ccccc2)n(-c2nc(-c3ccc(Cl)cc3)c3c(NC(=O)c4ccccc4)nnc-3[nH]2)n1 | – | – | 10 µM | – | growth percent | 112% |
| CCCCN1CCN(c2ccc3[nH]c(-c4ccc5[nH]c(-c6ccc(OCC)c(OCC)c6)nc5c4)nc3c2)CC1 | cell growth | – | 10 µM | 48 h | growth percent | 3.99% |
| COc1cc(CCCO)c(OC)c(OC)c1OC | – | NCI60 SRB | concentration not given | – | growth percent | 98.4% |
| Cc1n[nH]c2nc(-c3ccc(Cl)cc3)c3c(NC(=O)c4ccccc4)nnc-3n12 | – | – | 10 µM | – | growth percent | 102% |
| CCN(CC)c1ccc(C=NNC(=O)CSc2nc3ccccc3c(=O)n2Cc2ccc(S(N)(=O)=O)cc2)c(O)c1 | – | – | – | – | CC50 | > 100000 nM |
| COc1c(CCCO)cc2c(c1OC)OCO2 | – | NCI60 SRB | concentration not given | – | growth percent | 97.4% |
| O=c1ccn(Cc2cn(-c3cc4ccccc4oc3=O)nn2)c(=O)[nH]1 | – | NCI60 single dose | 10 µM | – | growth | 104% |
| CCCCN1CCN(c2ccc3[nH]c(-c4ccc5[nH]c(-c6cc(OC)c(OC)c(OC)c6)nc5c4)nc3c2)CC1 | cell growth | – | 10 µM | 48 h | growth percent | 85.7% |
| COc1cc(COC(=O)CCCCC[P+](c2ccccc2)(c2ccccc2)c2ccccc2)c(OC)c2c1OCO2.[Br-] | – | NCI60 SRB | concentration not given | – | growth percent | -9.81% |
| CCOC(=O)CSc1nc(-c2ccc(Cl)cc2)c2c(NC(=O)c3ccccc3)nnc-2[nH]1 | – | – | 10 µM | – | growth percent | 93.7% |
| C#C[C@@]1(O)[C@@H](CO)O[C@@H](n2cc(I)c3c(N)ncnc32)[C@@H]1O | cell growth | – | – | – | TGI | 200 nM and 343 nM |
